# Experimental data gathered from unrelated publications.
# Every numbered part comes from another study and shows a few of its results, in no order. Positions count from the first letter of the parent shown.
# Chain of UniProt Q9BY78 (whole entry, looked up): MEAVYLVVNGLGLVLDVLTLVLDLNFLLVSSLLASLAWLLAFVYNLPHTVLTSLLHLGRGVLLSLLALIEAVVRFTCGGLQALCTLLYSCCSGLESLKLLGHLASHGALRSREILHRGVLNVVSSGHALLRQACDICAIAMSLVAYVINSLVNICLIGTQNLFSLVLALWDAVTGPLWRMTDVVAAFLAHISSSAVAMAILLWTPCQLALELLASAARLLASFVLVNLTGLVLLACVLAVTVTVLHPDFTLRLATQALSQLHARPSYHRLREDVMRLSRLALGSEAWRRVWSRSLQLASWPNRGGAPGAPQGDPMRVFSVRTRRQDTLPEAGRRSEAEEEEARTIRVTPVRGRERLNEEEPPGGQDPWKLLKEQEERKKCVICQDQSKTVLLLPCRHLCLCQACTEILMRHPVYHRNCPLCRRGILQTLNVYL
# Chain of UniProt P49459 (whole entry, looked up): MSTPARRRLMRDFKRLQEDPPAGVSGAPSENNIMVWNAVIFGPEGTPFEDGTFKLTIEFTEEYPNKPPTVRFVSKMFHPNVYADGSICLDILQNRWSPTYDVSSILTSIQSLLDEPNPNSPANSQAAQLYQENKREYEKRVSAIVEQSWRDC

# Series 1
# Target: Interferon regulatory factor 3, full length, phosphomimetic (IRF3, Homo sapiens, UniProt Q14653, residues 1-427, S386D/S396D/S398D/S402D/T404D/S405D)
# Technique: protein-binding microarray
# Molecule type: double-stranded DNA, one strand shown
# Matrix: in vitro
# Tested at: 2540 nM top
# Notes: 60-bp whole probe
# Added: salmon DNA 0.4 mg/ml
# Baseline: random background probes
# Direction: higher = stronger binding
# All sequences stand within: GCCTAGCAC … GTCTTGATTCGCTTGACGCTGCTG
# Construct (chain): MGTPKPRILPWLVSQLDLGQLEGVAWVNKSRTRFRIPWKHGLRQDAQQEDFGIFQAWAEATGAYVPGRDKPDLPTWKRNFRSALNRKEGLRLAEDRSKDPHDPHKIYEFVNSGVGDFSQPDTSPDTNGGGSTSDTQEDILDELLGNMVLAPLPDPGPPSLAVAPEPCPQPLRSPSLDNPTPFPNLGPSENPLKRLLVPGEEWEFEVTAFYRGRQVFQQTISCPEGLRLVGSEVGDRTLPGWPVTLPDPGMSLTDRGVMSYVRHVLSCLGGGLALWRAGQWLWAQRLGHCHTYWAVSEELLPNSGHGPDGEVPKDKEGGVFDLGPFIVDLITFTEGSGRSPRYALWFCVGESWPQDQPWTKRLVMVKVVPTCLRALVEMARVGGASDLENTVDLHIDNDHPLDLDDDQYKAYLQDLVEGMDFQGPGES
Sequence,fitted relative affinity
GACGCTTTCGGTATCGGGACGTGCTAG,5.37 z-score
TGTTTTACAGGTTCTCTTTTAGTGCTA,1.76 z-score
TTAGGTATAGGACTGGGTTAGTGCTAG,-0.699 z-score
GATGGTTTCGGTCTCGGGACGTGCTAG,8.46 z-score
TCAATTCCAGGGTTTTATACTGTGCTA,0.19 z-score
TTAGGTTTCCTTTCCCGTTAGTGCTAG,10.4 z-score
GACGTTTTCCTTTTCCTGACGTGCTAG,7.99 z-score
TTCGGTCTCCTTTTCCTTTAGTGCTAG,5.96 z-score

# Series 2
# Target: Histone acetyltransferase KAT6A, winged helix 1, GST fusion (KAT6A, Homo sapiens, UniProt Q92794, residues 1-85)
# Technique: protein binding microarray
# Molecule type: double-stranded DNA, one strand shown
# Matrix: in vitro
# Tested at: not given
# Notes: 8-mer, flanks averaged, mean of 2 arrays, mostly near background
# Baseline: not given
# Direction: higher = stronger binding
# Target sequence (chain): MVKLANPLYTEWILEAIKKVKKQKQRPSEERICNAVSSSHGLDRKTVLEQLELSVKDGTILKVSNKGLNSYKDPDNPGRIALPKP
Sequence,E-score
CTTTTAGC,-0.056
AGAACTAC,0.0128
CATGGTTA,-0.048
CTTGAACA,-0.148
GTACTAGA,-0.0978
TGAATCCA,-0.234
CACCTGCC,-0.173
ACACCAAC,-0.15

# Series 3
# Target: CCNB2, cyclin fold, Cln2 fusion (human)
# Technique: yeast growth competition, sequencing
# Matrix: yeast
# Notes: strong parent motif
# Baseline: not given
# Direction: higher = stronger binding
# Parent: viral docking peptide; TSVRRALFTGGSD; partner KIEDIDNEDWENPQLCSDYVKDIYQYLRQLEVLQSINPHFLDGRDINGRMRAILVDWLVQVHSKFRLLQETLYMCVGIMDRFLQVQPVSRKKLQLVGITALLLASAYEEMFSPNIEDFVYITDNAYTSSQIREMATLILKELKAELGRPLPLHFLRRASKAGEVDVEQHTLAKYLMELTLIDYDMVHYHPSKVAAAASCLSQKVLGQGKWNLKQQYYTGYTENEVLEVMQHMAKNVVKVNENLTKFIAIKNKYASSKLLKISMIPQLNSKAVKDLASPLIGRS
Substitution,normalised enrichment score
TSVRRALFHGGSD [T9H],0.828
TSVRRALFTYGSD [G10Y],0.813
TSVRRALSTGGSD [F8S],0.56

# Further values, each from its own experiment
Substance,target,assay,test system,setting,how to read,measurement,value
RNF26 RING domain (UniProt Q9BY78),UBE2A UBC core domain (UniProt P49459),yeast two-hybrid,yeast,mostly zero background,"baseline: not given, higher = stronger interaction",lacZ reporter activity,0

# For quick reference, copied from above (series 2):
Sequence,E-score
AGAACTAC,0.0128
CATGGTTA,-0.048
CTTGAACA,-0.148
